Measurements of several laboratories.
± marks the error that the study gave.

| Structure (SMILES) | target or system | test | test system | setting | scale | endpoint | result |
| --- | --- | --- | --- | --- | --- | --- | --- |
| Cn1cnc2ccc(Nc3c(F)ccc(NS(=O)(=O)N4CC(F)C4)c3Cl)c(Cl)c2c1=O |  | refers to: fatigue grade 1-2 | human patients | dose not given, monotherapy trial | reference: patients | patients with fatigue | 8% |
| COc1ccc([C@@H](O)c2cc(-c3ncnc4cc(N5CCOCC5)ccc34)c(F)cc2Cl)nn1 |  |  | locally advanced rectal cancer | oral, 150 mg, together with: capecitabine and radiotherapy |  | rectal haemorrhage TEAE | 33% |
| Cc1ccc([C@@H]2O[C@H](CO)[C@@H](O)[C@H](O)[C@H]2O)cc1Cc1ccc(-c2ccc(F)cc2)s1 |  |  | Japanese type 2 diabetes patients | 25 mg, day 5, 24 h urine collection | reference: baseline | urinary calcium excretion change | -14.4 mg |
| COCCOc1cnc2ccn([C@H](C)c3nnc4c(F)cc(-c5cnn(C)c5)cn34)c(=O)c2c1 |  |  | cancer patients, plasma | oral, 200 mg once daily, day 1 |  | Ctrough | 416 ng/mL |
| COc1ccc2c(c1)CN(C(=O)CCN1CCC(Cc3ccccc3)CC1)CC[S@@+]2[O-] |  | telemetry | conscious male beagle dogs | intravenous, 4 mg/kg, 4 h |  | QRS duration | 34 ± 10 ms |
| CCc1cc(C(=O)NC)c2nccc(N3CCc4c(cc(Cn5ccnc5)cc4-c4cn(C)nc4C(F)(F)F)C3=O)c2c1 |  | refers to: CK | Sprague Dawley rat | oral, 50 mg/kg once daily, 7 days | reference: vehicle | change in clinical chemistry or haematology parameter | -18.8% |
| O=C(Nc1nc2cccc(-c3ccc(CN4CCS(=O)(=O)CC4)cc3)n2n1)C1CC1 |  | refers to: vertigo | rheumatoid arthritis patients | oral, 300 mg once daily, 4 weeks, any relatedness |  | treatment-emergent adverse events | 0% |
| Cc1ccc(NS(=O)(=O)c2cc(C(=O)Nc3ccccc3C(=O)N3CCOCC3)ccc2Cl)c(C)c1 |  |  | aqueous buffer | pH 7.4 |  | solubility | < 3.77 µg/mL |
| Cc1c(C(=O)O)ccc2c3n(nc12)[C@@H]1[C@H](C3)N(CC2CC2)[C@@]2(C(=O)Nc3cc(Cl)ccc32)[C@H]1c1cccc(Cl)c1F |  |  | human patients phase Ia | oral, dose not given, all grades, all patients |  | decreased appetite incidence | 40.7% |
| CNCCOC12CC3(C)CC(C)(CC(Cn4ncc(-c5ccc(N6CCc7cccc(C(=O)Nc8nc9ccccc9s8)c7C6)nc5C(=O)O)c4C)(C3)C1)C2 |  |  | beagle dog, male, anaesthetised | intravenous bolus, 0.03 mg/kg, 10 min | reference: baseline | QRS duration change | 1 ms |
| COc1ccc(Oc2cc(N(C)CCOc3ccc(CC4SC(=O)NC4=O)cc3)ncn2)cc1 (stereo not shown) |  |  | type 2 diabetes patients, serum | 0.5 mg once daily, 12 weeks, real-world retrospective study |  | total bilirubin reduction | 0.07 mg/dL |
| O=C(COc1ccc(Cl)cc1)NC12CC(c3nnc([C@H]4C[C@@H](OC(F)(F)F)C4)o3)(C1)C2 |  | refers to: Presyncope | healthy humans, both sexes | oral, 200 mg, single ascending dose | reference: subjects | treatment-emergent adverse events | 16.7% |
| CNC(=O)c1cc(Oc2ccc(NC(=O)Nc3ccc(Cl)c(C(F)(F)F)c3)c(F)c2)ccn1 |  |  | mouse plasma | 25 ng/mL, 8 h, room temperature |  | short-term stability accuracy | 99.1% |
| C[C@@H](N)c1cc(Cl)ccc1Cn1c(=S)[nH]c(=O)c2[nH]ccc21 |  |  | human severe renal impairment | oral, 2.5 mg single dose |  | subjects with headache | 10% |
| C[C@H](CCC(=O)NCC(=O)O)[C@H]1CC[C@H]2[C@@H]3[C@H](O)C[C@@H]4C[C@H](O)CC[C@]4(C)[C@H]3CC[C@]12C |  |  | human, plasma | control |  | Cmin | 84.8 ± 16.8 nM |
| O=C(Nc1ccc(OC(F)(F)Cl)cc1)c1cnc(N2CC[C@@H](O)C2)c(-c2ccn[nH]2)c1 |  | refers to: Amylase increase, any grade | human patients, dose-finding study | oral, sample E of sample B patients |  | patients with event | 33.3% |
| NC1(C(=O)N[C@@H](CCO)c2ccc(Cl)cc2)CCN(c2nc[nH]c3nccc2-3)CC1 |  |  | metastatic CRPC patients | 480 mg b.i.d., any grade, treatment-related, together with: enzalutamide 160 mg daily |  | incidence of Diarrhoea | 60% |
| CC1(C)OC[C@H](C2CCCCC2)N[C@@H]1c1ccc(-c2ccccc2)cc1 |  | shake-flask, LC-HRMS | aqueous buffer | 16 h, pH 6.8 |  | solubility | < 4 µM |
| CN1CCC(CNc2ccc3ncc(-c4cccc(OC(F)(F)F)c4)n3n2)CC1 |  | thrombosis risk signature, BioMAP Diversity PLUS | primary human cell cocultures |  |  | lowest toxic concentration | ≥ 1.1 µM |
| C=CC(=O)N1CCC(c2ccc(C(N)=O)c(-c3ccc(Oc4ccccc4)cc3)n2)CC1 |  | CTCAE 4.03 | patients with relapsed/refractory MCL | oral, 100 mg twice daily |  | incidence of grade ≥3 TEAEs | 12.5% |
| CC(C)(C)c1ccc([C@@H]2COC[C@@H](c3ccc(Cl)cc3)N2)cc1 |  | shake-flask, LC-HRMS | aqueous buffer | 16 h, pH 6.8 |  | solubility | < 4 µM |
| CN(CC#N)C(=O)C[C@H](Nc1nc2ccccc2[nH]1)c1cccc(C(F)(F)F)c1 |  |  | human | intravenous infusion, 2 mg/kg, 1 mg/mL formulation |  | apparent volume of distribution | 74.8 ± 12.4 L |

| Structure (SMILES) | target or system | test | test system | setting | scale | endpoint | result |
| --- | --- | --- | --- | --- | --- | --- | --- |
| CN1CCC[C@H](CN2c3ccccc3Sc3ccccc32)C1.Cl |  |  | ICR mouse female fasted, liver | oral, 16 mg/kg |  | AUC(0-t) | 33500 ng·h/mL |
| CCn1cc(C(=O)N2CCOCC2)c(=O)c2cc(NC3Cc4ccccc4C3)cnc21 |  |  | human, fasted | oral suspension, 50 mg single dose, arithmetic mean |  | half-life | 7.71 h |
| NS(=O)(=O)c1ccc(NN=C2C(=O)Nc3ccc4[nH]nnc4c32)cc1 |  |  | aqueous buffer | pH 7.4 |  | solubility | < 1.53 µg/mL |
| Cc1cc([C@H]2C[C@H]3[C@@H](CF)SC(N)=N[C@@]3(c3ccc(F)cc3F)CO2)on1 |  |  | 129/SVE wild-type mouse, male | subcutaneous, 30 mg/kg, 14 h |  | CSF concentration | 14 nM |
| CC(C)C[C@H](NC(=O)[C@@H](Cc1c[nH]c2ccccc12)NC(=O)[C@H](Cc1ccc(O)cc1)NC(=O)[C@H](CO)NC(=O)[C@H](Cc1c[nH]c2ccccc12)NC(=O)[C@H](Cc1c[nH]cn1)NC(=O)[C@@H]1CCC(=O)N1)C(=O)N[C@@H](CCCNC(=N)N)C(=O)N1CCC[C@H]1C(=O)NCC(N)=O |  |  | Chinese CPP children, boys | intramuscular, 22.5 mg, 12 months, day 1, month 6 |  | patients, drug-related skin TEAEs | 25% |
| CCC(CC)[C@H]1CO[C@H](C)[C@@H](c2cccc(Cl)c2)N1 |  | shake-flask, LC-HRMS | aqueous buffer | 16 h, pH 6.8 |  | solubility | < 4 µM |
| O=C1NCCc2nc(OCc3cccc(F)c3)ccc21 |  | refers to: Catalepsy | Sprague-Dawley rat male | oral, 100 mg/kg, 0 min | reference: baseline, direction not given | Irwin test score | 0 |
| Cn1cc(-c2ccc(-c3cncc(Cl)c3N3CCC4(CCNC4=O)CC3)cc2)cn1 | COLO 205 | gene expression, microarray, refers to: FHL2 mRNA |  | concentration not given, 6 h | reference: untreated cells | log2 fold change | 1.3 |
| O=C(NO)c1ccc(CN(c2cnccn2)c2cnccn2)cc1 |  | refers to: decreased appetite | human | oral, dose not given, all dose cohorts, sample B patients |  | patients with adverse event | 20% |
| O=c1[nH]c(=O)n([C@H]2C[C@H](O)[C@@H](CO)O2)cc1CCCCC[18F] |  |  | male CD-1 nu/nu mice, RG2 tumour, skin | intravenous, dose not given, 2 h |  | biodistribution | 0.12 ± 0.05 %ID/g |
| Cc1noc(C)c1Cn1cc(N2C(=O)CN(Cc3cccc(O)c3)C2=O)cn1 |  |  | pooled rat liver microsomes Sprague-Dawley | 1 µM, 30 min, pH 7.4 |  | remaining parent | 70 % peak area |
| CCCCc1ccc(-c2ccc(C#N)cc2)cc1 |  |  | Sprague-Dawley rat, female, placenta | 10 ng/mL in perfusate, 50 (unit not given), low dose, mixture of 21 LCMs |  | placental accumulation | 1.29 ± 2.14 ng/g |
| O=c1[nH]c(=O)n([C@H]2C[C@H](O)[C@@H](CO)O2)cc1CCCC[18F] |  |  | male CD-1 nu/nu mice, RG2 tumour, brain | intravenous, dose not given, 2 h |  | biodistribution | 0.08 ± 0.01 %ID/g |
| Cn1cc(Nc2nc(N)nc(-c3cccc(-n4ccc5cc(C6CC6)cc(F)c5c4=O)c3CO)n2)cn1 |  |  | healthy humans, fed | oral tablet, 150 mg twice daily (multiple dose), 14 (unit not given) | reference: subjects | vomiting incidence | 0% |
| CCC(=O)N(CCC(c1ccc2c(c1)OCO2)c1ccccc1OC)Cc1ccccc1 (stereo not shown) |  |  | mouse, blood | i.p., 60 mg/kg twice daily, 2 weeks |  | sodium | 154 mEq/L |
| Cc1cc(NC2CCN(C(=O)OC3CCN(C(=O)/C=C/CN(C)C)C3)CC2)n2ncc(C(C)C)c2n1 (stereo not shown) |  | CTCAE v4.0, refers to: Vomiting | patients with advanced solid tumours | oral, dose not given, all schedules, grade 3 or higher |  | patients with TEAE | 2% |
| Cn1cc([C@H]2COC[C@@H](c3ccc(C(C)(C)C)cc3)N2)cn1 |  | shake-flask, LC-HRMS | aqueous buffer | 16 h, pH 6.8 |  | solubility | > 750 µM |
| Cc1ccc(Sc2ccccc2N2CCNCC2)c(C)c1 |  |  | healthy female adults | oral, 5 mg daily, 12 days |  | increased blood creatine phosphokinase | 0% |
| N#Cc1ccc(-c2cnc3ccc(-c4ccc(C(=O)N5CCOCC5)cc4)cn23)cc1 |  | refers to: QTcF interval | healthy volunteers | oral, 20 mg, fasted, time-averaged |  | placebo-corrected change from baseline | -5.5 ms |
| CC(C)(C)C[C@@H]1COC[C@@H](c2ccc(C#N)cc2)N1 |  | shake-flask, LC-HRMS | aqueous buffer | 16 h, pH 6.8 |  | solubility | > 750 µM |
| Cn1ncnc1[C@H]1c2n[nH]c(=O)c3cc(F)cc(c23)N[C@@H]1c1ccc(F)cc1 |  |  | human patients, plasma | oral, 600 µg/m2/day, day 5 |  | AUCτ | 200 ± 101 ng·h/mL |

Excerpt of the above:
| Structure (SMILES) | target or system | test | test system | setting | scale | endpoint | result |
| --- | --- | --- | --- | --- | --- | --- | --- |
| Cn1cc(Nc2nc(N)nc(-c3cccc(-n4ccc5cc(C6CC6)cc(F)c5c4=O)c3CO)n2)cn1 |  |  | healthy humans, fed | oral tablet, 150 mg twice daily (multiple dose), 14 (unit not given) | reference: subjects | vomiting incidence | 0% |
| CCC(=O)N(CCC(c1ccc2c(c1)OCO2)c1ccccc1OC)Cc1ccccc1 (stereo not shown) |  |  | mouse, blood | i.p., 60 mg/kg twice daily, 2 weeks |  | sodium | 154 mEq/L |
| Cc1cc(NC2CCN(C(=O)OC3CCN(C(=O)/C=C/CN(C)C)C3)CC2)n2ncc(C(C)C)c2n1 (stereo not shown) |  | CTCAE v4.0, refers to: Vomiting | patients with advanced solid tumours | oral, dose not given, all schedules, grade 3 or higher |  | patients with TEAE | 2% |
| Cn1cc([C@H]2COC[C@@H](c3ccc(C(C)(C)C)cc3)N2)cn1 |  | shake-flask, LC-HRMS | aqueous buffer | 16 h, pH 6.8 |  | solubility | > 750 µM |
| Cc1ccc(Sc2ccccc2N2CCNCC2)c(C)c1 |  |  | healthy female adults | oral, 5 mg daily, 12 days |  | increased blood creatine phosphokinase | 0% |
